Measured values from different studies.
Compare with care: the assays were run in different laboratories. “And” joins repeats or separate records; there may be more than shown. ± gives the spread as reported. ≈ marks a conversion by molar mass, not a printed value.
Chain of UniProt Q8TDX7 (whole entry, looked up): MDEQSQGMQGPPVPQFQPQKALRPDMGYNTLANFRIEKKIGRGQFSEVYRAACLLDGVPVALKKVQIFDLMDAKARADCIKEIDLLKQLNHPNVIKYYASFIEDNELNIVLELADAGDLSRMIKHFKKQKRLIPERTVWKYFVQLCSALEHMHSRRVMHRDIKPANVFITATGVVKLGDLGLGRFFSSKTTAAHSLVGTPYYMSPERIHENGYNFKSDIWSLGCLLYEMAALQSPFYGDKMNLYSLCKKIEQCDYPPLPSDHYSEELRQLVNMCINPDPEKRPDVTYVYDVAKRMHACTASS
Chain of UniProt Q13557 (whole entry, looked up): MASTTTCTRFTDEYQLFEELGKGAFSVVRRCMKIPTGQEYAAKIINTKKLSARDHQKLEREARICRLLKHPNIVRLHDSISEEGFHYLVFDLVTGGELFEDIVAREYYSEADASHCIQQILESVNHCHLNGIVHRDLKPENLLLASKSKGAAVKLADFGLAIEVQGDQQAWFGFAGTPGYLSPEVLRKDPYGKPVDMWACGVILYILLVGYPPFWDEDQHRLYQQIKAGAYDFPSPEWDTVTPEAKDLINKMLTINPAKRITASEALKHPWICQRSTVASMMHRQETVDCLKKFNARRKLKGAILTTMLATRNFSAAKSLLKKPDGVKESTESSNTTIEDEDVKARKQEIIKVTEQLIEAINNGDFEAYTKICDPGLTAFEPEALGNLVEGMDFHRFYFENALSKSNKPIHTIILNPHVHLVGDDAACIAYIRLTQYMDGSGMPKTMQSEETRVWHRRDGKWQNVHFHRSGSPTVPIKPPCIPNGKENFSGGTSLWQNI
Chain of UniProt Q9H2K8 (whole entry, looked up): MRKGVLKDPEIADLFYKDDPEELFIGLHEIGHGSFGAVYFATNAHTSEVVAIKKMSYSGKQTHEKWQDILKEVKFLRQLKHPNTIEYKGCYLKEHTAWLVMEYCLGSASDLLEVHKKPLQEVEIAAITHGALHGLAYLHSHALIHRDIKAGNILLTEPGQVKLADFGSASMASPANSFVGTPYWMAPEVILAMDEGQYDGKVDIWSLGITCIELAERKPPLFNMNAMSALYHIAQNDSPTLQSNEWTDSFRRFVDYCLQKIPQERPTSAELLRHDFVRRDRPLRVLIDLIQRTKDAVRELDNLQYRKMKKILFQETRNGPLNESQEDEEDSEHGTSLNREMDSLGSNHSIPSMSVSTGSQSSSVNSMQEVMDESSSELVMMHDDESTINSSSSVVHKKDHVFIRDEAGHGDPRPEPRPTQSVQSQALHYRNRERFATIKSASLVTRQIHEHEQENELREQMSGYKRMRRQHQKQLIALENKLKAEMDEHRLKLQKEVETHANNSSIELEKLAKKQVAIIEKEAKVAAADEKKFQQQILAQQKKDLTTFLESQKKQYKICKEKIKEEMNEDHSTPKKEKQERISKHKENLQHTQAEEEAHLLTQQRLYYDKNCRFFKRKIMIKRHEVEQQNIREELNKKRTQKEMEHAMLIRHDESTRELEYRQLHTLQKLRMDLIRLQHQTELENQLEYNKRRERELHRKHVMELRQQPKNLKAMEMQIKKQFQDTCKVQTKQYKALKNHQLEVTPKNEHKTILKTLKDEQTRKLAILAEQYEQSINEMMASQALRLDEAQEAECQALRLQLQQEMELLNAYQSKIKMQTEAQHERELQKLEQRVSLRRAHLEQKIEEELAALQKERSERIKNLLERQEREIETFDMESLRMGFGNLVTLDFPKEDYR
Chain of UniProt P54764 (whole entry, looked up): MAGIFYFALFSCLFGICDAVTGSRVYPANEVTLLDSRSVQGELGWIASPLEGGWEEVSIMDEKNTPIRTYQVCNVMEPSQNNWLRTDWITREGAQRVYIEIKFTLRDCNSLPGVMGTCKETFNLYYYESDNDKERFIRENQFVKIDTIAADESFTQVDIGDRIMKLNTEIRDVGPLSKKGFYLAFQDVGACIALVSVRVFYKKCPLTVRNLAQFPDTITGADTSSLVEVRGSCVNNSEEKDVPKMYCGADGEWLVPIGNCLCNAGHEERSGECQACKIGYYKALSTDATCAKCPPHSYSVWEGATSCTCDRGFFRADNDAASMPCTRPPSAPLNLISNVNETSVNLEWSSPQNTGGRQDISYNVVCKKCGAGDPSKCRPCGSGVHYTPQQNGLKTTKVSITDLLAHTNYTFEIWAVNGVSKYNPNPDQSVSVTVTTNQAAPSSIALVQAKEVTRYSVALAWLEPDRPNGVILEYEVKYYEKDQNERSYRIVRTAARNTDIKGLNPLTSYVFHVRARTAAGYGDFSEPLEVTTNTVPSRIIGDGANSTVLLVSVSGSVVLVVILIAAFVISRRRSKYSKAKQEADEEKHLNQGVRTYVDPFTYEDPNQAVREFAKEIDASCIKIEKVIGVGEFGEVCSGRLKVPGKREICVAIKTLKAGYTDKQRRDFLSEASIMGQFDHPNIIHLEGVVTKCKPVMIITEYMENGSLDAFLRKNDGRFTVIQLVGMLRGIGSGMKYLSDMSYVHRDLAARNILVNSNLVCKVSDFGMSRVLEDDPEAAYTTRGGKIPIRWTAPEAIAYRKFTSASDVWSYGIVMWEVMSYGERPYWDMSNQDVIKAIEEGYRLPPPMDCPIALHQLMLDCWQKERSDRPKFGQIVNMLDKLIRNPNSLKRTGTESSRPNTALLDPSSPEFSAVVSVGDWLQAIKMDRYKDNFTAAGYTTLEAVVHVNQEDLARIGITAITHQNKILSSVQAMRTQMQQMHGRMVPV

For O=C1NC(=O)c2c1c1cc(F)c[n+]3c1c1c2c2cc(O)ccc2[n]1[Ru-4]312([N]=C=S)[S+]3CC[S+]1CC[S+]2CC3 (stereo not shown), the remaining activity was 89% (TAOK3 (Homo sapiens, UniProt Q9H2K8); enzyme activity; 100 nM, human enzyme, added: 10 µM ATP; reference: untreated).
With CC(C)[C@@H]1NC(=O)[C@@H]2CCCN2C(=O)[C@@H](C(C)C)NC(=O)[C@H]2CCCN2C(=O)[C@H](C(C)C)NC(=O)[C@@H]2CCCN2C(=O)[C@@H](C(C)C)NC(=O)[C@H]2CCCN2C(=O)[C@H](C(C)C)NC(=O)[C@@H]2CCCN2C(=O)[C@@H](C(C)C)NC(=O)[C@H]2CCCN2C1=O the bi-ionic potential was -66 mV (sheep lipid bilayer; 10 µM, pH 7.4, 23 °C, added: 10 mM K+ vs NH4 chloride).
The relative abundance of COc1ccccc1-c1n[nH]c2nc(N[C@H]3CC[C@H](NS(=O)(=O)CC(C)C)CC3)ncc12 is reported as 0.93 (bead binding, competition bead pull-down, measured: LMJF.07.0340; Leishmania donovani extract; 10 µM; reference: vehicle).
For COc1cc(C(SC(C)C)SC(C)C)ccc1OCCNS(=O)(=O)c1ccc(Cl)cc1, the EC50 was 271 ± 3.7 µg/mL (≈ 537 µM) (tobacco mosaic virus; curative activity; in vivo plant).
O=C(O)c1ccc(-c2nc(-c3ccccc3Cl)c3sccn23)cc1: “platelet count change” 110% and 88.9% and 120% (C57BL/6 mice; dose not given, day 10, basal hematopoiesis).
The EC50 of COc1cc(C(SC(C)C)SC(C)C)ccc1OCCNS(=O)(=O)c1ccc(F)cc1 is reported as 42.4 ± 0.76 µg/mL (≈ 86.9 µM) (Tobacco mosaic virus; inactivation activity; plant in vivo).
For CC[N+](C)(CC)Cc1cc(Nc2ccnc3cc(Cl)ccc23)ccc1O.[Cl-], the inhibition was 50.6 ± 4.4% (West Nile virus; viral replication, Rluc reporter replicon; Vero WNV replicon cells; 50 µM, 24 h).
COc1ccccc1-c1n[nH]c2nc(NC3CCN(C(=O)Cc4ccc(F)cc4F)CC3)ncc12 gave a relative abundance of 0.99 (bead binding, competition bead pull-down, measured: LINJ.34.0150; Leishmania donovani axenic amastigote extract; 10 µM; reference: vehicle).
With CC(C)[C@H]1NC(=O)C[C@H]2/C=C/CCSSC[C@@H](NC1=O)C(=O)N[C@H](Cc1cccc3ccccc13)C(=O)NCC(=O)O2 the inhibition was -0.9% (CAMK2D (Homo sapiens, UniProt Q13557); enzyme activity, inhibitor; 10 µM).
Under “EC50 fold shift”, Cc1cc(C(=O)Nc2nc3cccc(C)c3n2[C@H]2CCCCN(C(=O)/C=C/CN(C)C)C2)ccn1 is recorded as 0.97 fold and 0.84 fold (Trypanosoma brucei; cell growth, Alamar Blue; 2T1 overexpressing Tb927.10.1070; reference: parental 2T1).
N=C(N)NCCC[C@@H]1NC(=O)[C@H](CCCCNC(=O)CCC(NC(=S)Nc2ccc(CC3CN(CC(=O)O)CCN(CC(=O)O)CCN(CC(=O)O)CCN3CC(=O)O)cc2)C(=O)NCCCC[C@@H]2NC(=O)[C@@H](Cc3ccc(O)cc3)NC(=O)[C@H](CC(=O)O)NC(=O)CNC(=O)[C@H](CCCNC(=N)N)NC2=O)NC(=O)[C@@H](Cc2ccc(O)cc2)NC(=O)[C@H](CC(=O)O)NC(=O)CNC1=O (stereo partly shown) [scandium-44 labelled] gave a tissue uptake of 0.15 ± 0.09 %ID/g (ex vivo γ-counting; female athymic nude mice, U-87 MG xenograft, muscle; intravenous, 4 h).
With CC(C)(C)C(=O)OCOP(=O)(OCOC(=O)C(C)(C)C)C1CCCN(O)C1=O (stereo not shown) the log GI50 was -6.49 log M (CAKI-1).
The inhibition of C[Si]1(C[C@H](CN)CC(=O)O)CCCC1 is reported as -13% (sodium channel site 2, rat; binding; 70 µM).
For COc1cc(C(SC(C)C)SC(C)C)ccc1OCCNS(=O)(=O)c1ccc(F)c(Cl)c1, the EC50 was > 2500 µg/mL (tobacco mosaic virus; curative activity; in vivo plant).
The necrotic cells of CC1CCC2C(C)C(OC(=O)CCC(=O)N3CCC(Nc4ccc(S(=O)(=O)NC(=O)c5ccc(N6CCN(CC7=C(c8ccc(Cl)cc8)CC(C)(C)CC7)CC6)cc5Oc5cnc6[nH]ccc6c5)cc4[N+](=O)[O-])CC3)OC3OC4(C)CCC1C32OO4 (stereo not shown) is reported as 0.3% (K562; annexin V/PI flow cytometry, measured: annexin V-/PI+; 3.2 µM, 24 h).
With Cc1cc(Oc2nc(N3CC[C@@H](c4ccncc4)C3)ncc2F)[nH]n1 the IC50 was 28.2 µM (CAKI-1; cell proliferation; kidney cancer).
COc1cc2c(cc1NC(=O)c1cncn1C)C[C@H]1[C@H]3CCCC[C@@]23CCN1C — result for plasma insulin: “increased” (intraperitoneal glucose tolerance test; C57BL/6 mouse; dose not given, 30 min, added: glucose 50 µg/g i.p.).
For CC(=O)NCSC[C@H](NC(=O)[C@@H]1CCCN1C(=O)[C@H](C)NC(=O)[C@@H](NC(=O)CNC(=O)[C@@H](NC(=O)[C@H](Cc1c[nH]c2ccccc12)NC(=O)[C@H](C)NC(=O)CNC(=O)[C@H](CO)NC(=O)[C@H](C)NC(=O)[C@@H]1CCCN1C(=O)[C@H](Cc1c[nH]c2ccccc12)NC(=O)[C@H](C)NC(=O)[C@H](C)NC(=O)[C@@H](N)Cc1ccc(O)cc1)[C@@H](C)O)[C@@H](C)O)C(=O)N[C@@H](CO)C(=O)N[C@@H](C)C(=O)NCC(=O)N[C@H](C(=O)NCCOCCOCCOCCOCCOCCOCCOCCOCCOCCOCCOCCOCCC(=O)N[C@@H](CS)C(N)=O)[C@@H](C)O, the selectivity ratio was 1.1 ± 0.56 (H2882 lung carcinoma; cell binding, phage binding, measured: output/input phage; 10 min, 37 °C; reference: control phage).
With CC[C@H](C)[C@H](NC(=O)[C@H](CO)NC(=O)[C@H](Cc1ccc(O)cc1)NC(=O)[C@H](Cc1ccc(O)cc1)NC(=O)[C@H](CC(N)=O)NC(=O)CNC(=O)[C@H](CO)NC(=O)[C@H](Cc1ccc(O)cc1)NC(=O)[C@H](CO)NC(=O)[C@H](CO)NC(=O)[C@H](CC(N)=O)NC(=O)COCCOCCNC(=O)CN1CCN(CC(=O)O)CCN(CC(=O)O)CCN(CC(=O)O)CC1)C(=O)N[C@@H](CC(C)C)C(N)=O [copper-64 labelled] the tumour uptake was 9.64 %ID/mL (dynamic PET; mouse, tamoxifen-induced PDAC, blood; intravenous, 0.1 µg/mouse, 6.5 min).
NCCCO.O=C(O)C(Cl)Cl has a herbicidal inhibition of 10% (Eleusine indica; 15 mg/mL, 21 days, post-emergence, greenhouse).
With CC(C)CC(C(=O)N1CC2(CC1C#N)C(=O)Nc1ccccc12)N(C)C(=O)c1cc2c(F)cc(F)c(F)c2[nH]1 (stereo not shown) the IC50 was > 100 µM (trypsin (human); enzyme activity, inhibitor).
With CN(C)[C@H]1C[C@@]23CC[C@@]4(O2)C(=CC[C@]2(C)[C@@H](c5ccc6ccncc6c5)CC[C@H]24)C=C3[C@@H](O)[C@@H]1O the inhibition was 9.7% (NEK7 (Homo sapiens, UniProt Q8TDX7); ATP probe labelling, inhibitor, KiNativ profiling; 1 µM).
Cc1nc2cccc(OCC(C)(C)C(=O)NC(C)C)c2c(N)c1C(=O)[O-].[Na+]: “revertant colonies per plate” 114 ± 13 (Salmonella typhimurium; TA100; 0.13 mg per plate, with S9, preincubation).
O=C1NC2(CC2)COc2ncc(F)cc2[C@H]2COCCN2c2ccn3ncc1c3n2: “serum total bilirubin” 1.5 ± 0.4 µmol/L (Sprague-Dawley rat, male, serum; oral, 20 mg/kg/day, end of recovery, 4-week subacute toxicity).
CS(C)(=O)=Nc1ccc(-c2ccc(-c3nc4cc(O[C@@H]5CO[C@H]6[C@@H]5OC[C@H]6O)[nH]c4cc3F)cc2)cc1 gave an inhibition of -12% (EPHA4 (Homo sapiens, UniProt P54764); enzyme activity, inhibitor; 10 µM).

For quick reference, copied from above:
The EC50 of COc1cc(C(SC(C)C)SC(C)C)ccc1OCCNS(=O)(=O)c1ccc(F)cc1 is reported as 42.4 ± 0.76 µg/mL (≈ 86.9 µM) (Tobacco mosaic virus; inactivation activity; plant in vivo).
The relative abundance of COc1ccccc1-c1n[nH]c2nc(N[C@H]3CC[C@H](NS(=O)(=O)CC(C)C)CC3)ncc12 is reported as 0.93 (bead binding, competition bead pull-down, measured: LMJF.07.0340; Leishmania donovani extract; 10 µM; reference: vehicle).
